Assay results gathered from unrelated publications.
Every numbered part comes from another study and shows a few of its results, in no order.

Sample 1
Target: Prothrombin, mature alpha-thrombin (F2, Homo sapiens, UniProt P00734)
Method: aptamer microarray, sandwich
Form: DNA with 2'F-ANA
Sample: in vitro
Concentration: 200 nM
Setting: whole 15-mer aptamer, many near background
Added: Cy3 exosite-II aptamer, 400 nM
Direction: higher = stronger binding
Measurement: mean fluorescence intensity
Oligonucleotide: GGTTGGTGTGGTTGG
2'F-ANA at 1 2 3 4 5 6 7 8 12 13: 90.6 a.u.
2'F-ANA at 2 4 5 6 7 9: 71.3 a.u.
2'F-ANA at 1 7 8 10 12: 74.1 a.u.
2'F-ANA at 2 3 6 7 9 11 12 13: 728 a.u.
2'F-ANA at 1 2 3 4 5 9 12 13 15: 87.6 a.u.
2'F-ANA at 1 4 5 9 13 14: 41.7 a.u.
2'F-ANA at 3 8 10 11 14: 449 a.u.
2'F-ANA at 1 2 4 5 8 9 10 12 13: 48.6 a.u.
2'F-ANA at 5 8 12 13: 121 a.u.
2'F-ANA at 2 4 6 7 8 11 14: 94.1 a.u.
2'F-ANA at 2 4 5 6 8 10 11 12 13 14: 48.8 a.u.
2'F-ANA at 3 5 6 7 13 14: 49.7 a.u.
2'F-ANA at 2 5 9 10 12 14: 44.1 a.u.
2'F-ANA at 1 2 3 4 6 9 11 12: 256 a.u.
2'F-ANA at 2 3 5 6 11 14 15: 47.3 a.u.
2'F-ANA at 1 2 3 8 9 10 12 14 15: 58.1 a.u.
2'F-ANA at 1 2 3 5 6 7 10 12 14 15: 54.6 a.u.
2'F-ANA at 1 2 6 7 8 11 15: 145 a.u.
2'F-ANA at 1 2 3 5 8 9 14 15: 48.2 a.u.
2'F-ANA at 1 3 4 7 9 10 14 15: 54.2 a.u.
2'F-ANA at 1 3 4 9 12 13 14 15: 68.9 a.u.
2'F-ANA at 1 3 8 13: 311 a.u.
2'F-ANA at 3 5 6 9 11: 105 a.u.
2'F-ANA at 1 3 5 6 7 8 10 11 13: 47.2 a.u.

Sample 2
Target: Histone acetyltransferase KAT6A, both winged helices, GST fusion (KAT6A, Homo sapiens, UniProt Q92794, residues 1-181)
Method: protein binding microarray
Form: double-stranded DNA, one strand shown
Sample: in vitro
Concentration: not given
Setting: 8-mer, flanks averaged, mean of 2 arrays, mostly near background
Relative to: not given
Direction: higher = stronger binding
Measurement: E-score
Target sequence (chain): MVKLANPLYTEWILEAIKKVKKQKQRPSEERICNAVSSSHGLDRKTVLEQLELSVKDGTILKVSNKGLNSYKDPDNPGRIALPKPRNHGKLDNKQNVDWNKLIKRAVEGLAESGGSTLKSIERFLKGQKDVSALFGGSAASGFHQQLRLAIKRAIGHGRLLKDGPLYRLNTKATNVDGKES
AGTTAGCA: -0.136
CGAGTTCC: -0.0194
CGCAATTC: 0.237
GGCTTACA: 0.00368
AATTAGAC: -0.168
AAGTTATC: -0.0952
CATGCTGC: -0.0679
AAGGACAG: -0.0466
CAACGGCG: 0.289
AGCCGAAT: 0.122
GGGTCCAA: -0.144
GATTCTCC: -0.0561
GGATGGAC: -0.0264
AGACAGAT: -0.156
AGGAACCA: -0.0438
CTAGGTAA: -0.125
TCCGAGAA: 0.129
ACTCCTTG: -0.0131
GATCAGCC: -0.0983
CCAAACTA: -0.157
ACGAGTGA: -0.0798

Sample 3
Target: Sal-like protein 4, full length isoform A (SALL4, Homo sapiens, UniProt Q9UJQ4, residues 1-1053)
Chain of UniProt Q9UJQ4 (whole entry, looked up): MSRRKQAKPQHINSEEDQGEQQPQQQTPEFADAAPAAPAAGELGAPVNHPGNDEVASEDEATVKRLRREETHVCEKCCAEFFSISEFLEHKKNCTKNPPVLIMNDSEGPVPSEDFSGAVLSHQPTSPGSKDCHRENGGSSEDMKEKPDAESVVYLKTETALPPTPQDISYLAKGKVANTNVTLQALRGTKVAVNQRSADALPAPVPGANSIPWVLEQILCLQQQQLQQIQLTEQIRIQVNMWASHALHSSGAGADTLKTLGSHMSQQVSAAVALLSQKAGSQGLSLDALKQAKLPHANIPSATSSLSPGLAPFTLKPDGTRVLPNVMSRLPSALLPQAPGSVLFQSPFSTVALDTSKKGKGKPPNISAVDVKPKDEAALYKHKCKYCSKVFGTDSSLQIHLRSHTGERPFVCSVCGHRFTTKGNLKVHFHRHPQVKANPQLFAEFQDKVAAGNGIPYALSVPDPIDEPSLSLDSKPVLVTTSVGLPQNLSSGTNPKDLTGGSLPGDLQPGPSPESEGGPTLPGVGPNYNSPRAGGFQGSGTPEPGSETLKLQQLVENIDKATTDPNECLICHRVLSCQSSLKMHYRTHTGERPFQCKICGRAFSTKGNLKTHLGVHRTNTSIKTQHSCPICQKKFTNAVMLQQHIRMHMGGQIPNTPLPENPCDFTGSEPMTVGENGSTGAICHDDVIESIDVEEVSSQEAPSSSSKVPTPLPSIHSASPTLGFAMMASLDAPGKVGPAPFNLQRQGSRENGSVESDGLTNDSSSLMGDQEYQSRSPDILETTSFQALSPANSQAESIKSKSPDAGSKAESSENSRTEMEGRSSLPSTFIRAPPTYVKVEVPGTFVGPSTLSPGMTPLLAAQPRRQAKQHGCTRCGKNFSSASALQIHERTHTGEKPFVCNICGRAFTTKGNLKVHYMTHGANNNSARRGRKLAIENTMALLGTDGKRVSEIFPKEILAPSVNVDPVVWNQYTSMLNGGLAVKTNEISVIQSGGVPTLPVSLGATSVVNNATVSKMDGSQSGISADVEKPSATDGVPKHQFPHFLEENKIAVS
Method: universal PBM
Form: double-stranded DNA, one strand shown
Sample: in vitro
Concentration: 600 nM
Setting: 8-mer, flanks averaged, mean of replicates
Direction: higher = stronger binding
Measurement: E-score
ATGCTCCC: -0.258
ACGAGTAA: 0.182
CACATAGA: 0.0964
CCCGCAGA: -0.164
ACGGTGTA: -0.00889
AGCAGGTG: -0.0351
GAATTCCC: -0.00873
ATTGCGAA: 0.111
AACCCTTC: 0.149
GAAGACAA: 0.153
ACTGGAGC: -0.1
GACCAACC: -0.266
AGTCTATG: 0.0323
CTCGAGTC: -0.0942
TAATCAGA: 0.242
GGCGACGA: -0.228
AGACAATA: 0.323
AGGTCTAG: -0.0585
ATGGTCGA: 0.0569
GGTGGTCA: -0.16
AATTCCCG: 0.0417
CGACGAGA: -0.0633

Sample 4
Target: Interferon regulatory factor 5, full length, phosphomimetic (IRF5, Homo sapiens, UniProt Q13568-2, residues 1-514, K96S/S451D/S453D/S456D/S462D)
Method: protein-binding microarray
Form: double-stranded DNA, one strand shown
Sample: in vitro
Concentration: 250 nM
Setting: 60-bp whole probe
Added: salmon DNA 0.4 mg/ml
Relative to: random background probes
Direction: higher = stronger binding
Measurement: log fluorescence
Constant ends, left off below: GCCTAGCAC … GTCTTGATTCGCTTGACGCTGCTG
TTAGGACTGCTTCTCCTTTGGTGCTAG: -0.446 z-score
TTAGGTTCCTTTTTCCTTTAGTGCTAG: 0.882 z-score
TTAGGTATCGTCTATCGGTTAGTGCTA: 5.14 z-score
GACGGTCTCGGTACCGGGACGTGCTAG: 0.126 z-score
GACGGTTTCGGACTGAGGACGTGCTAG: 4.08 z-score
GAGGGTTTCGGTATCGGGACGTGCTAG: 9.05 z-score
CCCTATTTAAGGCATCTGCAGGTGCTA: -0.236 z-score
GTATATATAATATATATTCATGTGCTA: 0.735 z-score
GACGATCTCAGTATCGAGACGTGCTAG: 1.69 z-score
GACGATATCGGGTATCGAGATGTGCTA: 2.69 z-score
ATTGAGAATTCCACTCCGCTGTGCTAG: -0.144 z-score
GACGGTATCGACTATCTGGACGTGCTA: 2.51 z-score
TTAGATTTCGGGTTTCCATTAGTGCTA: 5.39 z-score
GTCGGTTTCGGGACTGGGGACGTGCTA: 6.21 z-score
TTAGGACTGGGGTATCGGCTAGTGCTA: 0.374 z-score
TTAGGTCTGCTACTGCTTTAGTGCTAG: -0.388 z-score
TTAGGTATCGGACTGGGTGAGTGCTAG: 1.49 z-score
TTGGGTTTCGACTTTCGGTTAGTGCTA: 10.2 z-score
AGAGATTTCAGGAATTGAAAAGTGCTA: 0.746 z-score
TTAGGTTTCCTTATCGTTTAGTGCTAG: 2.09 z-score
TTAGTACTGCTACTGCTTTAGTGCTAG: -0.0995 z-score
TTAGCACTGGGTATCGGTTAGTGCTAG: 4.51 z-score
GACGATTTCAGTTCCTAGACGTGCTAG: 1.05 z-score
GTCGGTATCCTACTGCTGACGTGCTAG: 0.197 z-score
TTAGGTAGCGGGTATCGGTTAGTGCTA: 3.18 z-score

Sample 5
Target: RING finger protein unkempt homolog, zinc fingers 1-6, SBP tag (UNK, Homo sapiens, UniProt Q9C0B0, residues 30-357)
Chain of UniProt Q9C0B0 (30-357, looked up): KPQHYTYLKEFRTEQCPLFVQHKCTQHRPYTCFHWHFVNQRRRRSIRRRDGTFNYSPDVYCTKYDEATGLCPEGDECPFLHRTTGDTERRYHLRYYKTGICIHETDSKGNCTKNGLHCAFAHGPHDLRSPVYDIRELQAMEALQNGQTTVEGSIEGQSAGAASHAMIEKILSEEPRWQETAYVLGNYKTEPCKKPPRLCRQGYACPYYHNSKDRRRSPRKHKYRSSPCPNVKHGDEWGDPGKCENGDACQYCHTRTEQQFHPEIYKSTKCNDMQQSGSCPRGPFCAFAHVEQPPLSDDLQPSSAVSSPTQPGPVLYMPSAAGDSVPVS
Method: RNA Bind-n-Seq
Form: RNA
Sample: in vitro
Concentration: 100 nM
Setting: RNA with constant flanks, vertebrate orthologous sites, ends assumed
Relative to: input RNA pool
Direction: higher = stronger binding
Measurement: bound/input enrichment
Constant ends, left off below: GGGAGUUCUACAGUCCGACGAUC … CAACAGAGGAUUGAGCAUCA
AUUCAAGCCUGUGGUACCAUGGCCUCAUGUUGAAGGAGUAGAAGUGGACUUAGAGUCUAUUAGAAGAAAAAACAAGGCCAAAAAUGAACAGGAGCGUCAUGCUGGAGGAGAUUCCCAGAA: 0.415 ratio
GAGGAUUAGGUUCGAUCCUUUACGUGUUAAAAAAGAAAGCGUAAAAACAUUUUUAAAACAUAGAAGAAUUCAGCAAACCAUUUUUAAAGUAGAAGAGGGUUUUAGGUAGCAAAACGUAUU: 1.2 ratio
UGAGGGAGAGAUUUCUGUGCUUUCUCAUAUUUAAUUUGCUGUUUUUAAGGUAUUCCAACCUAGAGUUUUUGAUGGAACUGAUAUAUUGACAGUUCUCACCUAAGUCCUUUUAUAAAGAAU: 1.04 ratio
GUCCCCUGGACCGGGACAGACUUUUUUUUUAAACGUCUUGAAACCUAAACUCUGUGCUUGUAGAAGACUGUAACCUUUUUGUCUUUUUUUUUUUUUAAACAAACAAAAAAACCAACCUCC: 0.505 ratio
GUUGUUUUGUACAGGGCAUUCUCUGUACUAAUUUGUUGUGGUUAUAAACAGUUAGCAAAACAGCUUACAUUUGUAUUUAUUUUCUAUUCCAUACCUCUCUGCCCAUGUUUUUUCUCCUCA: 1.24 ratio
GGGGCGGCCAAUGGGGGAAUUUCCUGCUUGGCCUUGUCUCCUCUCCCUGCCAUCUUCCCCUAGUUAUUUUUUUUUUUACCACCAUGUGAUUAAGGUCGGUGCCGCCUCCCCCGACCAACU: 5.47 ratio
UAAGAAUUGGAAGAAUUGUGUAGGAGGCAGUAGUCAAAAAGUAGAAGCAGUUUGGAAGAGUAGUUACAAAUAUCAAGAGCCAGGUGGCUAAAAGGUGGAGCUAUAGGUCAUUGAAGCUCA: 1 ratio
CCCCGAUUUUAGAUGUGAUAUUUAGGCUUUCAUUCCAGUUUGUUUUUGUCUUUUCUUGUUUAGAUACCAAUCUUUUAAAUUCUUGCAUUUUAGUAAGAGAGCUACCUUUUUAUGGAUGUU: 2.1 ratio
AUAAUCACUCUAAUUGUAUUCUGAAUAAAGUGUAACAUUGUGUAGCCUUUUUGUAUAAAAUAGACAAAUAGAAAUGGUCCGAUUAGUUUCCUUUUUAAUAUGCUUAAAAUAAGCAGGUGG: 1.51 ratio
CUGUUGUUAAGCACUGUGUUCCAGACCGUGUCUGACUUUAGUGUAACCUAGGAGAUUUUAUAGUUUUAUUUUAAUGAAAUCCUGCUUGAUGCAGAGCAGCGGGGAGAGCAGUGUCUUCUA: 2.8 ratio
GUCCCUCAGUGACAGUAUGCCAUCAGUAGCGGAUUCCCACUCUAGUCAUUUCUCUGAAUUUAGCUGUUCUGACCUAGAAAGCAUGAAAACUUCUUGUAGUCAUGGUUCCACUGAUUAUCA: 1.56 ratio

Sample 6
Target: TAR DNA-binding protein 43, full length, His tag (TARDBP, Homo sapiens, UniProt Q13148, residues 1-414)
Method: RNA Bind-n-Seq
Form: RNA
Sample: in vitro
Concentration: 20 nM
Setting: 6-mer, flanks averaged, single round
Added: 150 mM LiCl
Relative to: input library
Direction: higher = stronger binding
Measurement: 6-mer enrichment (R)
GAGCGC: 0.992
GACUCA: 0.855
AGUAAC: 0.844
CAUCUU: 0.9
GUAACU: 0.882
AAUCGG: 0.854
GACUUU: 0.944
ACUUGU: 0.947
CAACCU: 0.843
CCCCUC: 1.28
AUAGUU: 0.964
AGAGUA: 0.972
CAGCCU: 0.895
CGCGCG: 1.01
UAACAC: 0.852
